Assay results gathered from unrelated publications.
Lines come from different studies, so protocols differ.
Sample: plasma

SMILES	system	setting	endpoint	result
CC(C)NC(=O)COc1cccc(-c2nc(Nc3ccc4[nH]ncc4c3)c3ccccc3n2)c1	male C57BL/6 mouse	oral, 100 mg/kg	AUC(0-inf)	44800 ng·h/mL
O=C(O)CCN1C(=O)/C(=C2/C(=O)Nc3ccc(Cl)cc32)SC1=S	mouse	intraperitoneal, 25 mg/kg	AUC(0-t)	17900 ng·h/mL
CC(C)c1cc(C(=O)NCCN)c2cnn(C(C)C)c2n1	female BALB/c mouse	intraperitoneal, 50 mg/kg	AUC(0-inf)	7600 ng·h/mL
COC(=O)c1cc(Cl)ccc1N(C)C(=O)c1ccn2ncc(-c3ccc(C(N)=O)cc3)c2c1	female C57BL/6 mouse	oral, 10 mg/kg	AUC	0.142 µM·h
Cn1ncnc1[C@H]1c2n[nH]c(=O)c3cc(F)cc(c23)N[C@@H]1c1ccc(F)cc1	female FVB mouse	oral, 0.5 mg/kg	AUC	620 ng·h/mL
CO[C@H]1/C=C/O[C@@]2(C)Oc3c(C)c(O)c4c(c3C2=O)C2=NC3(CCN(CC(C)C)CC3)NC2=C(NC(=O)/C(C)=C\C=C\[C@H](C)[C@H](O)[C@@H](C)[C@@H](O)[C@@H](C)[C@H](OC(C)=O)[C@@H]1C)C4=O	female CD-1 mouse	oral, 10 mg/kg	AUC	11200 ng·h/mL
CN(C(=O)c1ccn2ncc(-c3ccc(C(N)=O)cc3)c2c1)c1ccc(C#N)cn1	female C57BL/6 mouse	oral, 10 mg/kg	AUC	3.2 µM·h
CC(C)n1ncc2c(C(=O)NCC3(C)CNC3)cc(C3CC3)nc21	female BALB/c mouse	intraperitoneal, 50 mg/kg	AUC(0-inf)	11100 ng·h/mL
Cc1ncsc1-c1ccc(CNC(=O)[C@@H]2C[C@@H](O)CN2C(=O)[C@@H](NC(=O)CCCCCCCCCCNC(=O)O[C@H]2C[C@@H](C)C=C3C=C[C@H](C)[C@H](CC[C@@H]4C[C@@H](O)CC(=O)O4)[C@H]32)C(C)(C)C)cc1	C57BL/6 mouse	oral, 60 mg/kg, single dose	AUC(0-inf)	5.4 µM·h
Nc1ccn([C@@H]2O[C@H](CO)[C@@H](O)C2(F)F)c(=O)n1	male BALB/c mouse	intravenous, 38 µmol/kg	AUC(0-t)	55.6 µM·h
